Measurements of several laboratories.
Numbered parts are unrelated; each lists some results of a single study. Positions count from the first letter of the parent shown.

Block 1
Cell line: mouse MPNST tumor cells
Method: high-content nuclear imaging
Refers to: cell number
Tested at: 10 µM
Time: 12 h
Setting: mean of 2 replicates
Reference: plate mean
Reading: higher = more cells
The nuclei count of CCOC(=O)c1ncc2[nH]c3ccc(OCc4ccccc4)cc3c2c1COC is reported as -1.99 z-score.
The nuclei count of O=C(Oc1ccc(Br)cc1)N1CCN2CCC1CC2 is reported as 1.9 z-score.
For CC(C)C[C@H](CN)CC(=O)O, the nuclei count was 0.249 z-score.

Block 2
Cell line: HEK-293T/ACE2
Tested at: concentration not given
Time: 16 (unit not given)
Reference: vehicle
Nc1nc2ncc(CNc3ccc(C(=O)N[C@@H](CCC(=O)O)C(=O)O)cc3)nc2c(=O)[nH]1 gave a viability of 89.5%.
The viability of Cc1ccccc1N1C(=O)c2cc(S(N)(=O)=O)c(Cl)cc2NC1C (stereo not shown) is reported as 101%.
The viability of Cc1cc(-c2ccc(/N=N/c3ccc4c(S(=O)(=O)O)cc(S(=O)(=O)O)c(N)c4c3O)c(C)c2)ccc1/N=N/c1ccc2c(S(=O)(=O)O)cc(S(=O)(=O)O)c(N)c2c1O is reported as 98.3%.
With O=NN(CCCl)C(=O)NC1CCCCC1 the viability was 99.2%.

Block 3
SMILES: COc1ccc2c(c[n+](C)c3c4cc5c(cc4ccc23)OCO5)c1OC
Effect on: enzyme activity
Mode: inhibitor
Tested at: 0.5 µM
Reference: control
The remaining activity was 107% (Aurora kinase A (AURKA, Homo sapiens, UniProt O14965)).
For Proto-oncogene tyrosine-protein kinase receptor Ret (RET, Homo sapiens, UniProt P07949): remaining activity read 97%.
The remaining activity was 99.6% (Epidermal growth factor receptor (EGFR, Homo sapiens, UniProt P00533)).

Block 4
Target: vanadate, free oxyanion
Method: microfluidic competitive inhibition
Matrix: in vitro, cell-free expressed
Tested at: not given
Setting: derived from inhibition constants, unchanged parent 676 nM
Reading: lower = stronger binding
Starting sequence: PafA, mature enzyme, eGFP fusion (Elizabethkingia meningoseptica, UniProt Q9KJX5); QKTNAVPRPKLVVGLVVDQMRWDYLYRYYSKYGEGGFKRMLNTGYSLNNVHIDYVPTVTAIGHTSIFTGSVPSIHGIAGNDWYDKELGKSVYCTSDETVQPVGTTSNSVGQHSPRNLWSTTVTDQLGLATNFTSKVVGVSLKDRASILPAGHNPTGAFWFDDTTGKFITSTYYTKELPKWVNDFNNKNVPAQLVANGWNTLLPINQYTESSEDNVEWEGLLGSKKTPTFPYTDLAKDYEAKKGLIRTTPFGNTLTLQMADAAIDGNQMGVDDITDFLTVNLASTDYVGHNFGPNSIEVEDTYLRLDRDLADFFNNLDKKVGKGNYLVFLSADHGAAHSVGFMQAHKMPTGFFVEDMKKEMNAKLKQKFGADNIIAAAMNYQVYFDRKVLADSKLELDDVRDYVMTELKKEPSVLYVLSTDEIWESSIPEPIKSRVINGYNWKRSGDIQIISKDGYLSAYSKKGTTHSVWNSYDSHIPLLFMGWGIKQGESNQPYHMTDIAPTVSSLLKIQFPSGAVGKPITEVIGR
For `D272V`, “oxyanion analog dissociation constant” read 728 nM.
`T419G`: “oxyanion analog dissociation constant” 977 nM.
`S418V` — result for “oxyanion analog dissociation constant”: 828 nM.
Under “oxyanion analog dissociation constant”, `Y439V` is recorded as 783 nM.
For `V279A`, “oxyanion analog dissociation constant” read 571 nM.
For `R39V`, “oxyanion analog dissociation constant” read 690 nM.
`N196G` — result for “oxyanion analog dissociation constant”: 969 nM.
Under “oxyanion analog dissociation constant”, `K318G` is recorded as 615 nM.

Block 5
Organism: Sarcocystis neurona
Effect on: parasite growth
Tested at: 10 µM
Reference: untreated
C[C@]12CC[C@H]3[C@@H](CCC4=CC(=O)CC[C@@H]43)[C@@H]1CC[C@@H]2O — result for “log2 fold change”: -0.09.
CCCCC/C=C\C/C=C\C/C=C\C/C=C\CCCC(=O)Nc1ccc(O)cc1: “log2 fold change” -0.07.
For Cl.O=C1[C@H]2CCCC[C@H]2C(=O)N1CCCCN1CCN(c2nsc3ccccc23)CC1, “log2 fold change” read -2.39.
For Br.COc1ccc2c(c1)[C@]13CCCC[C@@H]1[C@H](C2)N(C)CC3, “log2 fold change” read 0.29.

Block 6
Target: 5-hydroxytryptamine receptor 1A (HTR1A, Homo sapiens, UniProt P08908)
Effect on: ligand displacement
Tested at: 10 µM
COc1cccc(NC(=O)c2nc3scc(CN(C)Cc4ccccc4)c3c(=O)[nH]2)c1 gave an inhibition of 15.8%.
COc1cc(C(=O)O)ncc1C#Cc1ccccc1NS(=O)(=O)c1cccc2c(N(C)C)ccnc12 gave an inhibition of 40.2%.
CN1C(=O)[C@@H](N2CCc3cn(Cc4ccccc4)nc3C2=O)COc2ccccc21 gave an inhibition of 5.07%.
Nc1nc(NCc2ccccc2)nc(-c2ccccc2CO)n1 has an inhibition of 9.7%.
For C[C@H](c1ccnc(Nc2nc3ccc(-c4cc(N(C)C)ncn4)cc3[nH]2)c1)N1CCN(C(=O)CC(F)(F)F)CC1, the inhibition was 6.47%.
CCC(F)(F)c1cc(N2CCC(S(C)(=O)=O)CC2)nc2sc(C(N)=O)c(N)c12 gave an inhibition of 14.4%.
NC(=O)c1ccc2nc(-c3ccc(C4(N)CCC4)cc3)c(-c3ccccc3)n2n1 gave an inhibition of 32.7%.
With Cc1cc(C)c(-n2ccn3nc(-c4cccnc4)cc23)cc1NC(=O)c1cc(C#N)cc(S(F)(F)(F)(F)F)c1 the inhibition was -6.68%.
c1ccc(C2CCN(c3cnc4c(N5CCOCC5)nccn34)CC2)cc1 gave an inhibition of 25.7%.
The inhibition of COCc1nc2cnc3cc(-c4c(C)noc4C)c(OC[C@H]4CCNC4)cc3c2n1[C@H](C)c1ccccc1 is reported as 15.3%.
The inhibition of Cc1noc([C@H]2C[C@@H](c3ccc(C(F)(F)F)cc3)CN(C(=O)N3CCS(=O)(=O)C3)C2)n1 is reported as -4.52%.
For CCC(=NO)C(C)=Cc1ccc(F)c(C)c1, the inhibition was 1.12%.
CC[C@H](CC(=O)O)n1c(=O)c2ncccc2n(Cc2cn(C)c3cc(C)cc(C)c23)c1=O has an inhibition of 8.83%.
The inhibition of CNC(=O)Nc1ccc2c(c1)CC[C@]21OC(=O)N(CC(=O)N(Cc2ccc(F)cc2)[C@@H](C)C(F)(F)F)C1=O is reported as 6.87%.
With CS(=O)(=O)N1CCCC(NC(=O)[C@H](CCC2CCCCC2)NC(=O)c2ccc(CNC(=O)c3cnc4ccccn34)cc2)C1 (stereo partly shown) the inhibition was -18.9%.
Cc1ncc(-c2cc(Cl)ccc2F)cc1-n1c(=O)n(CC(N)=O)c2ccccc21 gave an inhibition of 12%.
The inhibition of CN(C)C(=O)c1sc2nc(N3CCC(S(C)(=O)=O)CC3)cc(C(F)(F)F)c2c1N is reported as 40.6%.
O=C(Nc1ccc(Oc2ccc(F)cc2)cc1)N1CCc2ncccc2[C@H]1c1ccc(F)cc1 has an inhibition of -3.56%.
For CC(=O)Nc1ncc(CN2CCC[C@H](Cc3cc(C)nc(C)c3)C2)s1, the inhibition was 22.2%.
For CN(C)c1ncnc(-c2ccc3nc(Nc4cc(CN5CCN(C(=O)CC(F)(F)F)CC5)ccn4)[nH]c3c2)c1Cl, the inhibition was 13.9%.
For Cc1c(N2CCNCC2)nc2ccc(Br)cc2c1C(=O)NC[C@H](CCC(=O)O)c1ccccc1Cl, the inhibition was 47.1%.
Nc1nc(NCc2ccccc2)nc(-c2cccc(CO)c2)n1 has an inhibition of 65.5%.
CN1CCN(C(=O)C(C)(C)c2ccc(C(=O)Nc3cn4cc(-c5cc(C(C)(C)C)cc(C(C)(C)C)c5)ccc4n3)cc2)CC1 gave an inhibition of 51.3%.
Nc1c(C(=O)NCc2ccc(C(=O)NCCCC3CCCCC3)cc2)cnn1-c1ccccc1 has an inhibition of -1.43%.
The inhibition of O[C@]1(C(F)(F)F)CCCC[C@H]1Nc1ccc(F)cc1 is reported as -1.95%.

Block 7
Target: DNA polymerase theta, helicase domain (POLQ, Homo sapiens, UniProt O75417)
Effect on: ATPase activity
Tested at: concentration not given
Setting: average
Added: with ssDNA
CSc1ccc(C(c2c(O)c3ccccc3oc2=O)c2c(C)n(C)n(-c3ccccc3)c2=O)cc1 (stereo not shown) gave a remaining activity of 70.7%.
COc1cc(C(c2c(O)c3ccccc3oc2=O)c2c(C)n(C)n(-c3ccccc3)c2=O)ccc1OCC(=O)O (stereo not shown) gave a remaining activity of 36.6%.
For CN(N=O)c1ccc(O)c(O)c1, the remaining activity was 38%.
CCN(CC)C(=O)c1ccc2c(c1)N(Cc1ccc(C(F)(F)F)cc1)C(=O)c1ccccc1S2 gave a remaining activity of 53.3%.

Single results of other studies
CC(C)C[C@H](CN)CC(=O)O has a viability of 101% (A-375; 100 µM, 60 h).

Some of these lines once more (block 2):
Nc1nc2ncc(CNc3ccc(C(=O)N[C@@H](CCC(=O)O)C(=O)O)cc3)nc2c(=O)[nH]1 gave a viability of 89.5%.
The viability of Cc1ccccc1N1C(=O)c2cc(S(N)(=O)=O)c(Cl)cc2NC1C (stereo not shown) is reported as 101%.
The viability of Cc1cc(-c2ccc(/N=N/c3ccc4c(S(=O)(=O)O)cc(S(=O)(=O)O)c(N)c4c3O)c(C)c2)ccc1/N=N/c1ccc2c(S(=O)(=O)O)cc(S(=O)(=O)O)c(N)c2c1O is reported as 98.3%.
